Measurements of several laboratories.
Each line is one published result; not all experiments were run side by side. Numbers after ± are the reported error.
Technique: steady-state kinetics
B1: ltaE H126F/H83F (Escherichia coli, UniProt P75823); chain MIDLRSDTVTRPSRAMLEAMMAAPVGDDVYGDDPTVNALQDYAAELSGKEAAIFLPTGTQANLVALLSHCERGEEYIVGQAAFNYLFEAGGAAVLGSIQPQPIDAAADGTLPLDKVAMKIKPDDIFFARTKLLSLENTHNGKVLPREYLKEAWEFTRERNLALHVDGARIFNAVVAYGCELKEITQYCDSFTICLSKGLGTPVGSLLVGNRDYIKRAIRWRKMTGGGMRQSGILAAAGIYALKNNVARLQEDHDNAAWMAEQLREAGADVMRQDTNMLFVRVGEENAAALGEYMKARNVLINASPIVRLVTHLDVSREQLAEVAAHWRAFLAR
B2: MCAT R178G (Homo sapiens, UniProt Q8IVS2); chain GQGSQVVGMGRGLLNYPRVRELYAAARRVLGYDLLELSLHGPQETLDRTVHCQPAIFVASLAAVEKLHHLQPSVIENCVAAAGFSVGEFAALVFAGAMEFAEGLYAVKIGAEAMQEASEAVPSGMLSVLGQPQSKFNFACLEAREHCKSLGIENPVCEVSNYLFPDCRVISGHQEALRFLQKNSSKFHFRRTRMLPVSGAFHTRLMEPAVEPLTQALKAVDIKKPLVSVYSNVHAHRYRHPGHIHKLLAQQLVSPVKWEQTMHAIYERKKGRGFPQTFEVGPGRQLGAILKSCNMQAWKSYSAVDVL
B3: FDC1 (Saccharomyces cerevisiae, UniProt Q03034); chain MRKLNPALEFRDFIQVLKDEDDLIEITEEIDPNLEVGAIMRKAYESHLPAPLFKNLKGASKDLFSILGCPAGLRSKEKGDHGRIAHHLGLDPKTTIKEIIDYLLECKEKEPLPPITVPVSSAPCKTHILSEEKIHLQSLPTPYLHVSDGGKYLQTYGMWILQTPDKKWTNWSIARGMVVDDKHITGLVIKPQHIRQIADSWAAIGKANEIPFALCFGVPPAAILVSSMPIPEGVSESDYVGAILGESVPVVKCETNDLMVPATSEMVFEGTLSLTDTHLEGPFGEMHGYVFKSQGHPCPLYTVKAMSYRDNAILPVSNPGLCTDETHTLIGSLVATEAKELAIESGLPILDAFMPYEAQALWLILKVDLKGLQALKTTPEEFCKKVGDIYFRTKVGFIVHEIILVADDIDIFNFKEVIWAYVTRHTPVADQMAFDDVTSFPLAPFVSQSSRSKTMKGGKCVTNCIFRQQYERSFDYITCNFEKGYPKGLVDKVNENWKRYGYK
B4: protein (Chlorobium limicola, UniProt B3ECE3); chain MQNKNFRAPQSEAIGILYKLIETGSKHKNMYDHTEITTDSLLALLGSEKVKIIDVRSADAYNGWRMRGEVRGGHIKGAKSLPAKWLTDPEWLNIVRFKQIRPEDAIVLYGYTPEECEQTATRFKENGYNNVSVFHRFHPDWTGNDAFPMDRLEQYNRLVPAEWVNGLISGEEIPEYDNDTFIVCHAHYRNRDAYLSGHIPGATDMDTLALESPETWNRRTPEELKKALEEHGITASTTVVLYGKFMHPDNADEFPGSAAGHIGAIRLAFIMMYAGVEDVRVLNGGYQSWTDAGFAISKDDVPKTTVPEFGAPIPSRPEFAVDIDEAKEMLQSEDSDLVCVRSYPEYIGEVSGYNYIKKKGRIPGAIFAECGSDAYHMENYRNHDHTTREYHEIEDIWAKSGIIPKKHLAFYCGTGWRGSEAWFNALLMGWPRVSVYDGGWFEWSNDPENPYETGVPK
B5: POLK W214Y/W392H/Y50W (Homo sapiens, UniProt Q9UBT6); chain MGLNDNKAGMEGLDKEKINKIIMEATKGSRFWGNELKKEKQVNQRIENMMQQKAQITSQQLRKAQLQVDRFAMELEQSRNLSNTIVHIDMDAFYAAVEMRDNPELKDKPIAVGSMSMLSTSNYHARRFGVRAAMPGFIAKRLCPQLIIVPPNFDKYRAVSKEVKEILADYDPNFMAMSLDEAYLNITKHLEERQNYPEDKRRYFIKMGSSVENDNPGKEVNKLSEHERSISPLLFEESPSDVQPPGDPFQVNFEEQNNPQILQNSVVFGTSAQEVVKEIRFRIEQKTTLTASAGIAPNTMLAKVCSDKNKPNGQYQILPNRQAVMDFIKDLPIRKVSGIGKVTEKMLKALGIITCTELYQQRALLSLLFSETSHHYFLHISLGLGSTHLTRDGERKSMSVERTFSEINKAEEQYSLCQELCSELAQDLQKERLKGRTVTIKLKNVNFEVKTRASTVSSVVSTAEEIFAIAKELLKTEIDADFPHPLRLRLMGVRISSFPNEEDRKHQQ
B6: TylM1 H123N (Streptomyces fradiae, UniProt P95748); chain MAHSSATAGPQADYSGEIAELYDLVHQGKGKDYHREAADLAALVRRHSPKAASLLDVACGTGMHLRHLADSFGTVEGLELSADMLAIARRRNPDAVLHHGDMRDFSLGRRFSAVTCMFSSIGNLAGQAELDAALERFAAHVLPDGVVVVEPWWFPENFTPGYVAAGTVEAGGTTVTRVSHSSREGEATRIEVHYLVAGPDRGITHHEESHRITLFTREQYERAFTAAGLSVEFMPGGPSGRGLFTGLPGAKGETR
B7: sacB S173G (Priestia megaterium, UniProt D5DC07); chain KGNDSKDFNNSYGISHITRDNMVKIPQQQNSDQFKVPAFDESTIKNIASAKGKNASGNTIDLDVWDSWPLQNADGTVATYHGYQIVFALAGDPKDSNDTSVYLFYKKAGDKSIDSWKNAGRVFKDSDKFVPNDPHLKNQTQEWGGSGTLTKDGKVRLFYTDYSGKQYGKQTLTTAQVNMSQPNDNTLKVDGVEDYKSIFDGDGKIYQTVQQFIDEGGYDTGDNHTLRDPHYIEDNGHKYLVFEANTGTEDGYQGEDSLYNRAYYGGNNPFFQSEKKKLLEGSNKEKASLANGALGIIELNDDYTLKKVMKPLITSNTVTDEIERANIFKKDGKWYLFTDSRGSKMTIDGIGQDDVYMLGYVSNTLTGKYKPLNDTGLVLHMDLDPNDKTFTYSHFAVPQTKGDNVVITSYMTNRGFYEDNHSTFAPSFLVNIDGSKTSVVKDRVLEQGQLTVDED
B8: enzyme A178R/D177A/P184R (Levilactobacillus brevis, UniProt Q03Q85); chain MKVTVVGCTHAGTFAIKQILAEHPDAEVTVYERNDVISFLSCGIALYLGGKVADPQGLFYSSPEELQKLGANVQMNHNVLAIDPDQKTVTVEDLTNHAQTTESYDKLVMTSGSWPIVPKIPGIDSDRVKLCKNWAHAQALIEDAKEAKRITVIGAGYIGAELAEAYSTTGHDVTLIARMARVMRKYFDADFTDVIEQDYRDHGVQLALGETVESFTDSATGLTIKTDKNSYETDLAILCIGFRPNTDLLKGKVDMAPNGAIITDDYMRSSNPDIFAAGDSAAVHYNPTHQNAYIPLATNAVRQGILVGKNLVKPTVKYMGTQSSSGLALYDRTIVSTGLTLAAAKQQGLNAEQVIVEDNYRPEFMPSTEPVLMSLVFDPDTHRILGGALMSKYDVSQSANTLSVCIQNENTIDDLAMVDMLFQPNFDRPFNYLNILAQAAQAKVAQSVNA
B9: putA G1011P (Rhodobacter capsulatus, UniProt D5AN87); chain MTDLSALGPKAKFAPEAEVLQALVAQAALPQPQLDRIAARGADLVARIRAEAKPSLMEHFLAQYGLSTREGVALMCLAEAMLRVPDTATIDALIEDKIAPSDWGKHLGTAASSLVNASTWALMLTGKVLDDGAGGIAGTLRGAMRRLGEPVIRAAVGQAMREMGRQFVLGETIEKALERAEKREAEGYTFSYDMLGEAALTAADAERYRLAYAQAITAIGKAATRGSIAANPGISIKLSALHPRYEVAQEARVMAELVPVVRDLARAAARAGIALHIDAEEQDRLALSLRVMAAVIADPETAGWEGFGAVVQAYGKRAGAAIDALAAMARAAGRRINIRLVKGAYWDAEMKRAQVEGHPGFPLFTSKTGTDVAYICLAAKLFGLNDCIYPQFATHNAHTVAAVLEMAAGRPFEFQRLHGMGARLHDIVLRETGGRCRIYAPVGAHRDLLAYLVRRLLENGANSSFVNQIVNESVPPAEVAACPFAALPTARAPRGLLAPADLFGAGRVNAQGFDLSDPEVLARIEAARDVTLPDAAPIVAGPVSGTLRPVRNPATGAVVAQVTEADAATVALALDAAQVWSAPAATRAAVLCRAADLYEENFGPIFAALAQEAGKTLGDAVSELREAVDFLRYYAAEGAADTRPPRGAVVAISPWNFPLAIFTGQVAAALMAGNAVLAKPAEQTPIIAALAVRLLHQAGVPETALQLLPGDGPTVGAALTRDPRVAGVVFTGSTETAQIIARAMAAHLAPGTPLIAETGGLNAMVVDSTALPEQAVRDVVASAFRSAGQRCSALRCLYVQDDIAPHLIGMLKGAMEELVSGDPARLSTDVGPVIDAEAKAGIETYLAANKARILHRSTAPEGGHFVAPALLQVGGIADLEREIFGPVLHLATFAAEDLPAVIAAINARGYGLTFGLHSRIDARVETVAETIRAGNIYVNRNQIGAVVGSQPFGGEGLSGTGPKAGGPLYLNRFYAPEPVVAVGGWTEAATPILPEARETQLDEIFLPGPTPELNRLTRHQRGPILCLGPGAEAASAQAAAVVALGGQAVQASGAVSPKALETLTPLAGVLWWGAAEMGRAYAQALAVRPGPLVPLITAKPDLAHVAHERHLCVDTTAAGGNAALLAG
Sequence of UniProt O95674 (whole entry, looked up): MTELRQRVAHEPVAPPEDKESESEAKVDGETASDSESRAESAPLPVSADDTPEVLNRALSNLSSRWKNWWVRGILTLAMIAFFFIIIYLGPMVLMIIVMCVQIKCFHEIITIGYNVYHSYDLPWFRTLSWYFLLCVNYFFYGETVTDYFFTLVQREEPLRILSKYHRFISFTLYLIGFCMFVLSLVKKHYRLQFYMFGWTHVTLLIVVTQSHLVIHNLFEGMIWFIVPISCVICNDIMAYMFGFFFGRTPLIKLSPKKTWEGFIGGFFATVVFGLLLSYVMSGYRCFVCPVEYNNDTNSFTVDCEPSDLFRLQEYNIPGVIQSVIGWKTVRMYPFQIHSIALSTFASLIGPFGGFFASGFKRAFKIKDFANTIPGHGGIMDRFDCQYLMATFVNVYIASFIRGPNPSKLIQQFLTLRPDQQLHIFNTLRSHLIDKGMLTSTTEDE
Sequence of UniProt P07914 (whole entry, looked up): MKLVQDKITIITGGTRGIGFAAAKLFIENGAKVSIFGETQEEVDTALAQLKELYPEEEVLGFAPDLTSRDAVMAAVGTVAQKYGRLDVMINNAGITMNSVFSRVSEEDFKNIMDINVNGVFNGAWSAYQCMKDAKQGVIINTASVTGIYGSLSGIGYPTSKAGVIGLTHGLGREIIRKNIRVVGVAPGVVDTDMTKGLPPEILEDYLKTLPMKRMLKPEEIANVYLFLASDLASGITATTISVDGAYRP

Substance	substrate	conditions	kcat [s⁻¹]
B1 (ltaE H126F/H83F)	C[C@H](O)[C@H](N)C(=O)O	pH 7, 30 °C, potassium phosphate 20 mM, retro-aldol cleavage, with: PLP 500 µM	0.0283
B2 (MCAT R178G)	CC(=O)SCCNC(=O)CCNC(=O)[C@H](O)C(C)(C)COP(=O)(O)OP(=O)(O)OC[C@H]1O[C@@H](n2cnc3c(N)ncnc32)[C@H](O)[C@@H]1OP(=O)(O)O	pH 6.8, 20 °C, labelled substrate, with: holo-ACP 20 µM	0.00667 ± 0.000833
B3 (FDC1)	O=C(O)/C=C/c1ccc(O)cc1	pH 7, 25 °C, apparent kcat, incomplete cofactor occupancy, apparent	1.5 ± 0.1
B4 (protein)	SSSS	pH 8, 25 °C, polysulfide mixture, with: hercynine 0.5 mM	0.0113 ± 0.000167
BaiA1 (Clostridium scindens, UniProt P07914)	C[C@H](CCC(=O)SCCNC(=O)CCNC(=O)[C@H](O)C(C)(C)COP(=O)(O)OP(=O)(O)OC[C@H]1O[C@@H](n2cnc3c(N)ncnc32)[C@H](O)[C@@H]1OP(=O)(O)O)[C@H]1CC[C@H]2[C@@H]3[C@H](O)C[C@@H]4C[C@H](O)CC[C@]4(C)[C@H]3CC[C@]12C	pH 8.7, 37 °C, with: NAD+	0.817
B5 (POLK W214Y/W392H/Y50W)	Nc1ccn([C@H]2C[C@H](O)[C@@H](COP(=O)(O)OP(=O)(O)OP(=O)(O)O)O2)c(=O)n1	pH 7.5, 23 °C, MgCl2 5 mM, with: G template	0.025 ± 0.002
speG (Vibrio cholerae, UniProt Q9KL03)	NCCCCNCCCN	pH 9, 37 °C	26.7
B6 (TylM1 H123N)	Cc1cn([C@H]2C[C@H](O)[C@@H](COP(=O)(O)OP(=O)(O)O[C@H]3O[C@H](C)[C@@H](O)[C@H](N)[C@H]3O)O2)c(=O)[nH]c1=O	25 °C, with: SAM	0.0126 ± 0.0003
B7 (sacB S173G)	OC[C@H]1O[C@@](CO)(O[C@H]2O[C@H](CO)[C@@H](O)[C@H](O)[C@H]2O)[C@@H](O)[C@@H]1O	pH 6.6	8.7 ± 0.4
B8 (enzyme A178R/D177A/P184R)	NC(=O)C1=CN([C@@H]2O[C@H](COP(=O)(O)OP(=O)(O)OC[C@H]3O[C@@H](n4cnc5c(N)ncnc54)[C@H](OP(=O)(O)O)[C@@H]3O)[C@@H](O)[C@H]2O)C=CC1	pH 7.5, 37 °C, per site	178 ± 67
CDS2 (Homo sapiens, UniProt O95674)	CCCCC/C=C\C/C=C\C/C=C\C/C=C\CCCC(=O)O[C@H](COC(=O)CCCCCCCCCCCCCCCCC)COP(=O)(O)O	pH 8, not purified	8 ± 0.3
protein (Cecembia lonarensis, UniProt K1KZY4)	O=[N+]([O-])c1ccc(O[C@@H]2OC[C@H](O)[C@@H](O)[C@@H]2O)cc1	pH 5.5, 35 °C, substrate inhibition	0.94 ± 0.23
B9 (putA G1011P)	O=C(O)[C@@H]1CCCN1	pH 8, 23 °C	22.4 ± 1.4

For quick reference, copied from above:
Substance	substrate	conditions	kcat [s⁻¹]
B1 (ltaE H126F/H83F)	C[C@H](O)[C@H](N)C(=O)O	pH 7, 30 °C, potassium phosphate 20 mM, retro-aldol cleavage, with: PLP 500 µM	0.0283
B9 (putA G1011P)	O=C(O)[C@@H]1CCCN1	pH 8, 23 °C	22.4 ± 1.4
